Published values from different studies.
Parts stem from different laboratories: compare values within a part only.
Chain of UniProt P42680 (whole entry, looked up): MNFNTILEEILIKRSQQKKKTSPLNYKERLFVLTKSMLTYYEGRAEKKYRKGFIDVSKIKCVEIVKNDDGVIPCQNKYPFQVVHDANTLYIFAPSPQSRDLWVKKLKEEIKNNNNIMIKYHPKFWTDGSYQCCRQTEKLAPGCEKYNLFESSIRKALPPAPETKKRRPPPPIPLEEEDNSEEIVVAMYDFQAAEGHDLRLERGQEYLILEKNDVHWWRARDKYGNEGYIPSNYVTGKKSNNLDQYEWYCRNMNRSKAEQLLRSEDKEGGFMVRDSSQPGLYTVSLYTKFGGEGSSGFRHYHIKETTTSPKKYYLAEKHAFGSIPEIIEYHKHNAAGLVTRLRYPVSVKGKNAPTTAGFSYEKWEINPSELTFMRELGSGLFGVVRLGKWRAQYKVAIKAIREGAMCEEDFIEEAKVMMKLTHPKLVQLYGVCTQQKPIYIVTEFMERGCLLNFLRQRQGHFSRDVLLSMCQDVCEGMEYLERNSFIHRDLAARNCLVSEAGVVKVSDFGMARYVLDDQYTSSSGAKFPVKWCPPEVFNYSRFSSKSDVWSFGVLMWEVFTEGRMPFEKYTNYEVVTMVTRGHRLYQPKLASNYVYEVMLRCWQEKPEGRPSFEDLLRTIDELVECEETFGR
Chain of UniProt P23458 (whole entry, looked up): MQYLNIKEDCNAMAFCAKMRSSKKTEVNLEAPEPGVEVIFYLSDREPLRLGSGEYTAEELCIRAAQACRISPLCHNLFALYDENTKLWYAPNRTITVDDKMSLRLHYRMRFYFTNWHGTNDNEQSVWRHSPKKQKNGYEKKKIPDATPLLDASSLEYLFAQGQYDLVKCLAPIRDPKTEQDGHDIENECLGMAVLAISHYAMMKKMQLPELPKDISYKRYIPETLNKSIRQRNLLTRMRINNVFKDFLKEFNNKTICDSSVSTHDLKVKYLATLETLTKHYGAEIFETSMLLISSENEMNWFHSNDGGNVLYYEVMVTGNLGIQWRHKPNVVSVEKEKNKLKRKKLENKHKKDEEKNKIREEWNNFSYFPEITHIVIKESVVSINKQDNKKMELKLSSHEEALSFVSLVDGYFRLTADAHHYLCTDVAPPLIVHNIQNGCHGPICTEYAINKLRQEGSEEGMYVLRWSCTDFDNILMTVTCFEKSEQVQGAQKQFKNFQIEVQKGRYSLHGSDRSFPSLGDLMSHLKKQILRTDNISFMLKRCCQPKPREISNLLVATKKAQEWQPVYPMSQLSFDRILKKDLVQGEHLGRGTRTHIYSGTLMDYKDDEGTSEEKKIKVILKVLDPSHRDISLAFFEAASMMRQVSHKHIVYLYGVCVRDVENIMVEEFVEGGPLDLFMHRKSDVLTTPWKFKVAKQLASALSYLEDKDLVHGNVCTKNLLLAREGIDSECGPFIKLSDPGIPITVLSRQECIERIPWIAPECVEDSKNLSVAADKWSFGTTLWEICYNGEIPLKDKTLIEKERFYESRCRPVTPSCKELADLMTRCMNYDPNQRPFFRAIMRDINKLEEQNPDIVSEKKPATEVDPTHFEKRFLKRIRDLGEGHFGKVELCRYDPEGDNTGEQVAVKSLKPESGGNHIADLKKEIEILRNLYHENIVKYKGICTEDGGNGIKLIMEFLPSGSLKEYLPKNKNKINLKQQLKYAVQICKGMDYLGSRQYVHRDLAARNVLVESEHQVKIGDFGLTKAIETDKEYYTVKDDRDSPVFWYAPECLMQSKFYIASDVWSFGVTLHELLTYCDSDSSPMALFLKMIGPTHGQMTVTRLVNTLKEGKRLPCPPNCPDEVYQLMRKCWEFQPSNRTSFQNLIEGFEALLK
Chain of UniProt P53355 (whole entry, looked up): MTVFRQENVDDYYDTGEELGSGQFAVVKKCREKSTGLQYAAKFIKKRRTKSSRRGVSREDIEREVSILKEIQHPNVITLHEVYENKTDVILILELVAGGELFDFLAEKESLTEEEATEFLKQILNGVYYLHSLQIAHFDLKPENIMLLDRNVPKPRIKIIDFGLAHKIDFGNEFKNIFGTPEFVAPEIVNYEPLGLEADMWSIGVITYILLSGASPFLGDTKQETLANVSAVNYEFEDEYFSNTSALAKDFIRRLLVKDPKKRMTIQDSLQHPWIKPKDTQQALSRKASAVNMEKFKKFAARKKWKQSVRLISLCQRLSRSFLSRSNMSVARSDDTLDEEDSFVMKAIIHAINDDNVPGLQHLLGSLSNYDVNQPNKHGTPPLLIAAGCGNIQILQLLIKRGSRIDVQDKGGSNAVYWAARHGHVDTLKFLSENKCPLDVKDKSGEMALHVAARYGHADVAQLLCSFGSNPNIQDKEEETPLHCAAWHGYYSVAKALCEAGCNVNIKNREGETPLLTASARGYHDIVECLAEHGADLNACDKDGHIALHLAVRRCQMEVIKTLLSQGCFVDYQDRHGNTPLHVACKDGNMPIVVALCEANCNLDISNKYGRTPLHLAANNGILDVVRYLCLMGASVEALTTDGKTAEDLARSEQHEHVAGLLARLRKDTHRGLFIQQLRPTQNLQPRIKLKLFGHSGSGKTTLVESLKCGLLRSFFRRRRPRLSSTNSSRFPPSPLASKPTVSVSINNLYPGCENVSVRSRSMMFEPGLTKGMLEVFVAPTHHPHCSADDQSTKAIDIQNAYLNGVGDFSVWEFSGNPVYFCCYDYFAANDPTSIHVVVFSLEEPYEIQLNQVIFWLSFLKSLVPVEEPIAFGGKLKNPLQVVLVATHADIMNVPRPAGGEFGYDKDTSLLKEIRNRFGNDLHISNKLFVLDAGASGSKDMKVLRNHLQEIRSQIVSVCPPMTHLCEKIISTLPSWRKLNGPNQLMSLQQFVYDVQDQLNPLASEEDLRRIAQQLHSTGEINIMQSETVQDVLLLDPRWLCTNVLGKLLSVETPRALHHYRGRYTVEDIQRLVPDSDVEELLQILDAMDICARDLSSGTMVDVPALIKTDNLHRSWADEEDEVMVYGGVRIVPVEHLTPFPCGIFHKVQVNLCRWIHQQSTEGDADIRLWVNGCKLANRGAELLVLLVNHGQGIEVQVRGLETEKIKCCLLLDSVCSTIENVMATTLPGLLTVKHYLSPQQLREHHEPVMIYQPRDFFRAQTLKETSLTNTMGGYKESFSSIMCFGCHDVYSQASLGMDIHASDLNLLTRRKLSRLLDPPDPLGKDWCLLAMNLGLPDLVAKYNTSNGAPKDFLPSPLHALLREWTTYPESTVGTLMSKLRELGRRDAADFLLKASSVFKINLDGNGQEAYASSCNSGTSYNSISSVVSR
Chain of UniProt Q8NFD2 (whole entry, looked up): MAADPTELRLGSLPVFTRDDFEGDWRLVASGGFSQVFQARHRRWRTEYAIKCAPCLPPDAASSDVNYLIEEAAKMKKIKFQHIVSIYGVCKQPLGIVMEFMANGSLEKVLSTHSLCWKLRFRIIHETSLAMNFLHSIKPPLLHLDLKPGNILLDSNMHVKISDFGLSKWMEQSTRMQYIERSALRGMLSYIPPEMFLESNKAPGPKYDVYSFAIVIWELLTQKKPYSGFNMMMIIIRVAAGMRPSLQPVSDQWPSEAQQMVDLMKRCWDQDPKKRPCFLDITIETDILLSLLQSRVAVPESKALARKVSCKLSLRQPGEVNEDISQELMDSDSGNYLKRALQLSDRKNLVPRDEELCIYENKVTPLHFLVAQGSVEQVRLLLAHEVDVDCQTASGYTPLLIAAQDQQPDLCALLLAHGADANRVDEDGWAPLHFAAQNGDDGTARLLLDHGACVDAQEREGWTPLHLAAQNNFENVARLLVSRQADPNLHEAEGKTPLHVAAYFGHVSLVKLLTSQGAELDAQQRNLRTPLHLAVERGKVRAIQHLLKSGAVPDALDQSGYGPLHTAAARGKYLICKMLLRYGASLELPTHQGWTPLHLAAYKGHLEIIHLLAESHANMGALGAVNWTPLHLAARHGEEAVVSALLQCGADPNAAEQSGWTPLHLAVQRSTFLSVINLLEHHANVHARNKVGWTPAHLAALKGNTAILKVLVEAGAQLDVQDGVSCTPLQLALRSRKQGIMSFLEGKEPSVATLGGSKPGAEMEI
Chain of UniProt P50613 (whole entry, looked up): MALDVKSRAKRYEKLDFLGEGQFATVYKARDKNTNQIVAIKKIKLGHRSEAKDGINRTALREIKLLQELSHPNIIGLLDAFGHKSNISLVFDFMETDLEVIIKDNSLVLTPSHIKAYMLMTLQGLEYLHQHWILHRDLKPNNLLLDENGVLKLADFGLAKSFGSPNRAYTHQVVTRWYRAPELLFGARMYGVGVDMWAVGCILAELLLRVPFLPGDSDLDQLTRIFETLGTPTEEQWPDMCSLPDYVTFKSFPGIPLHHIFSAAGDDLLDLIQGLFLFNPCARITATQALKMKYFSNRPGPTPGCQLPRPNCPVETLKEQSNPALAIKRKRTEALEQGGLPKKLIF
Chain of UniProt Q00535 (whole entry, looked up): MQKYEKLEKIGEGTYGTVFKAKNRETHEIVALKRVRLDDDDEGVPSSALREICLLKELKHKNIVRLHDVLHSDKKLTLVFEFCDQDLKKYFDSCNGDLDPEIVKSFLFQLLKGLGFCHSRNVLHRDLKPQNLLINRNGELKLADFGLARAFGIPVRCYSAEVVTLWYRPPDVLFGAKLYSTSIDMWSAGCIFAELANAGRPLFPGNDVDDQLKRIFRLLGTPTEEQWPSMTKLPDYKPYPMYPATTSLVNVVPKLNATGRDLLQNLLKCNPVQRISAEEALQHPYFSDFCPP

Study 1
Species: mouse
Medium: microsomes or S9
Tested at: 2 µM
Time: 0.5 h
With `C[S+]([O-])c1nn(-c2ccc(Cl)c(Cl)c2)c(-c2ccc(Cl)c(Cl)c2)c1-n1ccnc1` (stereo not shown) the remaining compound was 3.48%.
`CC(C)(C)c1ccc(C(=O)Nc2cc(-n3cnnn3)ccc2N2CCOCC2)cc1` has a remaining compound of 4.65%.
The remaining compound of `COc1ccccc1Nc1ccc(-n2ccnc2-c2ccncc2)cc1` is reported as 27.1%.
For `Fc1cnc(NC2CCN(C3CCOC3)CC2)nc1` (stereo not shown), the remaining compound was 100%.
For `CC(C)(C)OC(=O)N[C@@H](CC(=O)N1N=CCC1C(=O)OCc1ccccc1)Cc1cc(F)c(F)cc1F` (stereo partly shown), the remaining compound was > 99%.
`CS(=O)(=O)NCCOc1ccccc1-c1ccccc1` has a remaining compound of 98.9%.
`COc1ccc(C(Nc2nc(C)cc(C)n2)c2c(NC(=O)c3ccco3)sc(C)c2C)c(OC)c1` (stereo not shown) gave a remaining compound of 0.0553%.
`CC1(C)CC(=O)C2=C(C1)c1c(ccc3ccccc13)NC2c1cccnc1` (stereo not shown) has a remaining compound of 17.9%.
For `O=C(O)C[C@@H](Cc1cc(F)c(F)cc1F)NC(=O)Nc1ccc(I)cc1`, the remaining compound was 59.8%.
For `NC(=O)Cc1csc(NC(=O)CCNC2=NS(=O)(=O)c3ccccc32)n1`, the remaining compound was > 100%.
With `CC(C)Oc1cc(N2C=NN(C)CC2)ccc1[N+](=O)[O-]` the remaining compound was 0.106%.
The remaining compound of `Cc1ncn(-c2cc(NCCNC(=O)C(C)(C)C)ncn2)c1C` is reported as 60.4%.
The remaining compound of `CN(c1ccccc1)c1ccc2oc(-c3cc(-c4cnn(C5CCNCC5)c4)cnc3N)nc2c1` is reported as < 1%.
`Cc1nc(C)c(S(=O)(=O)N(C)CC(C)(C)O)s1` gave a remaining compound of 36.2%.
The remaining compound of `Cc1nn2c(=O)c(CCC(=O)NC(C)(C)c3noc(C(C)(C)C)n3)c(C)nc2[nH]1` is reported as 86.5%.
`COc1ccc2nc(C3=CCCN(C)C3)n(C)c2c1` has a remaining compound of 74.5%.
The remaining compound of `CC(C)(C)NC(=O)CN1CCN(c2cc(C(=O)O)c3cc(NS(=O)(=O)c4ccc(F)cc4)ccc3n2)CC1` is reported as 81.5%.
`Cc1cnn(C2CCN(C(=O)c3ccc(-c4cc[nH]n4)s3)C2)c1` (stereo not shown) has a remaining compound of 55.4%.
`O=C(N1CCOC2(CCCC2)C1)C1(c2ccccc2)CCOCC1` has a remaining compound of 0.32%.
The remaining compound of `Cn1cncc1-c1cccc(-c2cn3cccc(C#N)c3n2)c1` is reported as 46.6%.
With `Cc1ccc(S(=O)(=O)N2CCCC(C(=O)Nc3ccc4c(c3)OCCO4)C2)cc1` (stereo not shown) the remaining compound was 21.9%.
For `OC1(Cc2cccc(Br)c2)CCNCC1`, the remaining compound was 76.7%.

Study 2
SMILES: Cc1nccc(COC(=O)N2C[C@@H]3[C@@H](CNC(=O)c4ccc5[nH]nnc5c4)[C@@H]3C2)n1
Technique: competition with immobilised ligand
Tested at: 1 µM
DAPK1 (Homo sapiens, UniProt P53355); cell-free assay — remaining binding: 95%.
The remaining binding was 83% (PNCK (Homo sapiens, UniProt Q6P2M8); cell-free assay).
It gave 82% for remaining binding (LRRK2 (Homo sapiens, UniProt Q5S007, G2019S); cell-free assay).
The remaining binding was 100% (PTK6 (Homo sapiens, UniProt Q13882); cell-free assay).
MAP4K3 (Homo sapiens, UniProt Q8IVH8); cell-free assay — remaining binding: 66%.
It gave 87% for remaining binding (ALK (Homo sapiens, UniProt Q9UM73); cell-free assay).
It gave 78% for remaining binding (CDK7 (Homo sapiens, UniProt P50613); cell-free assay).
For ANKK1 (Homo sapiens, UniProt Q8NFD2); cell-free assay: remaining binding read 100%.
It gave 82% for remaining binding (FLT3 (Homo sapiens, UniProt P36888, N841I); cell-free assay).
Tyrosine-protein kinase JAK1, JH2 (JAK1, Homo sapiens, UniProt P23458); cell-free assay — remaining binding: 85%.
The remaining binding was 97% (PI4KB (Homo sapiens, UniProt Q9UBF8); cell-free assay).
CDK5 (Homo sapiens, UniProt Q00535); cell-free assay — remaining binding: 100%.
TEC (Homo sapiens, UniProt P42680); binding — remaining binding: 94%.

Study 3
Cell line: A-375
Tested at: 100 µM
Time: 18 h
`O=C1OC2(c3ccc(O)cc3Oc3cc(O)ccc32)c2ccccc21` gave a viability of 186%.
The viability of `CC(=O)NO` is reported as 105%.
For `O=c1ccc2ccc(OCCCCN3CCN(c4cccc5sccc45)CC3)cc2[nH]1`, the viability was 12.6%.
`CO/N=C(\C(=O)N[C@@H]1C(=O)N2C(C(=O)O)=C(C[N+]3(C)CCCC3)CS[C@H]12)c1csc(N)n1` gave a viability of 99.8%.
The viability of `Nc1nnc(-c2cccc(Cl)c2Cl)c(N)n1` is reported as 105%.
`N=c1ccn2c(n1)O[C@H]1[C@H](O)[C@@H](CO)O[C@H]12` has a viability of 73.2%.
`Nc1nc2c(ncn2CCC(CO)CO)c(=O)[nH]1` has a viability of 78.6%.
For `CCCCC(C)(O)C/C=C/[C@H]1[C@H](O)CC(=O)[C@@H]1CCCCCCC(=O)OC` (mixture of isomers), the viability was 81.5%.
`NCCc1c[nH]cn1` gave a viability of 96.7%.
The viability of `CCC(=O)O[C@@H](O[P@](=O)(CCCCc1ccccc1)CC(=O)N1C[C@H](C2CCCCC2)C[C@H]1C(=O)O)C(C)C` is reported as 98.4%.
The viability of `CC(C)(F)C[C@H](N[C@@H](c1ccc(-c2ccc(S(C)(=O)=O)cc2)cc1)C(F)(F)F)C(=O)NC1(C#N)CC1` is reported as 91.2%.
The viability of `[H]/N=C(/N)N[C@H]1[C@H](O)[C@@H](O)[C@H](O[C@@H]2O[C@@H](C)[C@](O)(C=O)[C@H]2O[C@@H]2O[C@@H](CO)[C@H](O)[C@@H](O)[C@@H]2NC)[C@@H](N/C(N)=N\[H])[C@@H]1O` is reported as 120%.

Study 4
Target: Death-associated protein kinase 3 (DAPK3, Homo sapiens, UniProt O43293)
Chain of UniProt O43293 (whole entry, looked up): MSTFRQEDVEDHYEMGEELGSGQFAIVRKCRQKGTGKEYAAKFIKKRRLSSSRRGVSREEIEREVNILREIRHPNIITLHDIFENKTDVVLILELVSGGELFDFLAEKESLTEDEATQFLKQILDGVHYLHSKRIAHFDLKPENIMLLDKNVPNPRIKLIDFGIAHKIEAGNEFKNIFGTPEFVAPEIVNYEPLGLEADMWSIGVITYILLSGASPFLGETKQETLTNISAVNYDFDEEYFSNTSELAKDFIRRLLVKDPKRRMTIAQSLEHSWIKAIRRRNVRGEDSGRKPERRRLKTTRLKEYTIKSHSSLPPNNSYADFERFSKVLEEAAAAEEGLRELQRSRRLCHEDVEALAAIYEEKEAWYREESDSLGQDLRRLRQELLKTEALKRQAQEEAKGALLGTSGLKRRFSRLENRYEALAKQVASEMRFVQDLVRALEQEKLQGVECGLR
Read-out: enzyme activity
Mode: inhibitor
Tested at: 0.5 µM
Reference: control
For `Oc1ccc(Nc2nc(-c3ccc(Cl)cc3)cs2)cc1`, the remaining activity was 103%.
For `O=C1NC(=O)C(c2c[nH]c3ccccc23)=C1c1c[nH]c2ccccc12`, the remaining activity was 104%.
`Fc1ccc(-c2nc3n(c2-c2ccncc2)CCS3)cc1` has a remaining activity of 100%.
`NC(=O)c1ccc(N(C(N)=O)c2c(F)cccc2F)nc1-c1ccc(F)cc1F` has a remaining activity of 107%.
`CC[n+]1c(/C=C/N(C)c2ccccc2)n(-c2ccccc2)c2ccc(-c3nc4ccccc4s3)cc21` gave a remaining activity of 95.4%.
The remaining activity of `Cc1cc(Nc2nc(-c3ccccc3)nc3ccccc23)n[nH]1` is reported as 57.5%.
`Nc1nc(Nc2ccc(S(N)(=O)=O)cc2)nn1C(=O)c1c(F)cccc1F` has a remaining activity of 99.4%.
With `Cc1cncc2cccc(S(=O)(=O)N3CCCN(C(=O)CN)C[C@@H]3C)c12` the remaining activity was 90.4%.
`CC(=O)c1ccc(N2CCOCC2)cc1O` gave a remaining activity of 98.1%.
`CSc1nc(-c2ccnc(N[C@@H](C)c3ccccc3)c2)c(-c2ccc(F)cc2)[nH]1` (racemic) has a remaining activity of 94.3%.
For `Nc1ncnc2c1cnn2-c1ccccc1`, the remaining activity was 103%.
`Nc1nccc(-c2c(-c3ccc(F)cc3)ncn2C2CCNCC2)n1` has a remaining activity of 96.5%.
`N#CC(=C(N)Sc1ccc(N)cc1)c1ccccc1C(F)(F)F` has a remaining activity of 102%.
For `O=C1Cc2c([nH]c3ccc([N+](=O)[O-])cc23)-c2ccccc2N1`, the remaining activity was 103%.
With `CC#CC(=O)Nc1cc2c(Nc3ccc(F)c(Cl)c3)ncnc2cn1` the remaining activity was 97.8%.
`Cc1ccc(NC2=CC(=O)c3sc(C)nc3C2=O)cc1` has a remaining activity of 104%.
For `COc1ccc(S(=O)(=O)N(CCO)c2ccccc2CN(C)CC=Cc2ccc(Cl)cc2)cc1`, the remaining activity was 101%.
`CCCC(=O)Oc1ccc2[nH]c(C(=O)c3cc4ccccc4[nH]3)cc2c1` has a remaining activity of 88.5%.
`CCc1[nH]c(-c2ccc(OC)cc2)nc1-c1ccncc1` has a remaining activity of 95.8%.
`COc1cc(Nc2c(C#N)cnc3cc(OCCCN4CCN(C)CC4)c(OC)cc23)c(Cl)cc1Cl` has a remaining activity of 107%.
